Assay results pooled from the literature.
Lines come from different studies, so protocols differ. ± marks the error that the study gave.

| SMILES | test | system | conditions | how to read | quantity | result |
| --- | --- | --- | --- | --- | --- | --- |
| COc1ccc2c(c1)CCn1c[n+]3c(c1-2)-c1ccc(OC)cc1CC3 | – | female NSG mice, blood | 6 mg/kg, day 14, 5 days per week | – | mean corpuscular haemoglobin | 16.1 ± 0.43 pg |
| COc1ccc2nc(-c3ccc(N(C)C)cc3)sc2c1 | – | PBS | free dye | – | brightness | 56 M⁻¹ cm⁻¹ |
| N#Cc1ccnc(N2C(=O)CC[C@H]2C(=O)N(c2cncc(F)c2)[C@H](C(=O)NC2CC(F)(F)C2)c2ccccc2Cl)c1 | – | rat, brain | oral, 50 mg/kg, single dose | – | tissue/plasma ratio | 0.041 |
| CN1CCC[C@]1(C)/C=C/S(=O)(=O)NC(=O)Nc1c2c(cc3c1CCC3)CC=C2 | – | human, plasma | oral, 12.5 mg twice daily of parent drug, day 1, metabolite of dosed drug | – | AUC(0-24) | 88000 ng·h/mL |
| CC(C)(O)c1ncc([S@](N)(=O)=NC(=O)Nc2c3c(cc4c2CCC4)CCC3)s1 | item: Gastrointestinal disorders | healthy human volunteers | oral, 100 mg once daily, 14 days, spray-dried dispersion | – | subjects with adverse events | 50% |
| CCCC[C@H](NC(=O)CNC(=O)CNC(=O)[C@H](CCCCNC(=O)[C@H](CC(=O)O)NC(=O)C(C)c1ccc(CC(C)C)cc1)NC(=O)CN1CCN(CC(=O)O)CCN(CC(=O)O)CCN(CC(=O)O)CC1)C(=O)N[C@H]1CC(=O)NCCCC[C@@H](C(N)=O)NC(=O)[C@H](Cc2c[nH]c3ccccc23)NC(=O)[C@H](CCCNC(=N)N)NC(=O)[C@@H](Cc2ccccc2)NC(=O)[C@H](Cc2c[nH]cn2)NC1=O (some centres unmarked) [lutetium-177 labelled] | – | C57 mice, tumour | intravenous, 0.037 MBq, 4 h | reference: muscle | tumour-to-tissue ratio | 79.5 |
| CN1CCC[C@]1(C)/C=C/S(=O)(=O)NC(=O)Nc1c2c(cc3c1CCC3O)CCC2 (some centres unmarked) | – | human, plasma | oral, 12.5 mg twice daily of parent drug, metabolite of dosed drug | reference: day 14 over day 1 | AUC(0-24) accumulation ratio | 1.5 |
| Cc1nc(N)nc2c1C(=O)N[C@@H](c1ccc(F)cc1-c1cccc(O[11CH3])n1)C2 | ex vivo biodistribution | healthy mice, brain | 60 min post-injection, baseline, vehicle pre-treatment | – | tracer uptake | 4.1 ± 1 %ID |
| CN(C)C(=O)c1cccc(N2Cc3cn(Cc4cccc(F)c4)nc3C2)c1 | metabolic stability | human, liver microsomes | – | – | half-life | 1.67 h |
| C=CC(=O)Nc1cc(Nc2nccc(-c3cn(C)c4ccccc34)n2)c(OC)cc1N(C)CCNC | storage stability | human plasma | 2 h, on ice, LQC level | – | recovery | 101% |
| [123I]c1ccc2nc(-c3ccc(-n4ccnn4)nc3)cn2c1 | – | male Wistar rat, lung | intravenous, 4 MBq, 6 h | – | tracer uptake | 0.101 %ID/g |
| C/C(N)=N/C(=N\S(=O)(=O)c1ccc(C(F)(F)F)cc1)N1C[C@H](c2ccccc2)C(c2ccc(Cl)cc2)=N1 | – | Beagle dog, plasma | oral, 24 mg/kg | – | oral bioavailability | 25.7% |
| CCCCN1C(=O)c2cccc3c(NCCCCN4CCOCC4)ccc(c23)C1=O | – | DMSO | – | – | fluorescence quantum yield | 0.37 |
| O=C(Nc1cnccc1-c1ccc([18F])cc1)c1ccnc(NC(=O)C2CC2)c1 | ex vivo gamma counting | GSK-3β transgenic mice, late-stage, blood | intravenous, 1.26 MBq/animal, 120 min, mean, no P-gp inhibitor | – | SUV | 0.2 |
| O=C(NS(=O)(=O)c1cccs1)c1cc2ccccc2n1Cc1ccc(Br)c2ccccc12 | – | Sprague-Dawley rat, male | oral, dose not given, 4 h | – | plasma concentration | 1320 ng/mL |
| C=C(NC(=O)c1csc(-c2nc3c(cc2O)-c2nc(cs2)C(=O)NC(C(C)O)C(=O)NC(=C(C)OC)c2nc(cs2)C(=O)NC2c4nc(cs4)C(=O)NC(COC(=O)c4c5c6c(cccc6n4O)COC(=O)C(OC4CC(C)(O)C(N(C)C)C(C)O4)C2OC5)c2nc-3cs2)n1)C(N)=O (centres unmarked) | – | ICR mice, Streptococcus pneumoniae ATCC 49169 infected, immunocompromised, blood | intravenous, 4 mg/kg/day three times daily | – | AUC(0-t) | 325 ng·h/mL |
| C=Cc1cccc([B-]23OC(=O)C(c4ccccc4)=N[N+]2=Cc2ccc(N(CC)CC)cc2O3)c1 (centres unmarked) | UV/vis decay | aqueous buffer | – | – | hydrolysis activation energy | 23.2 kcal/mol |
| [2H]C([2H])([18F])Oc1cc(C(=O)OCC2CCN(CCCC)CC2)ccc1N | PET | rhesus monkey, whole brain | dose not given, average | – | time to peak radioactivity | 6 min |
| CCOC(=O)[C@@](CC)(CCCSCCOCCOCCNC(=O)OC(C)(C)C)NC(=O)c1ccc(C2CC2)c(Cc2ccc(F)cc2)n1 | – | aqueous buffer with DMSO | – | – | kinetic solubility | < 0.4 µg/mL |
| CC[C@H](C)[C@@H](C(=O)N[C@@H](CC(C)C)C(=O)N[C@@H](CO)C(=O)N[C@@H](CO)C(=O)N[C@H](C(=O)N[C@@H](CCC(=O)O)C(=O)N[C@H](C(=O)NCC(=O)N[C@@H](CO)C(=O)N[C@@H](CC(N)=O)C(=O)N[C@H](C(=O)N1C[C@H](O)C[C@H]1C(N)=O)[C@@H](C)O)C(C)C)[C@@H](C)O)N(C)C(=O)[C@H](C)NC(=O)CN(C)C(=O)[C@H](Cc1ccccc1)NC(=O)[C@H](CO)NC(=O)[C@H](CO)NC(=O)[C@H](CCCNC(=N)N)NC(=O)[C@H](CCC(N)=O)NC(=O)[C@H](CC(C)C)NC(=O)[C@H](Cc1ccccc1)NC(=O)[C@H](CCCC(=O)O)NC(=O)[C@H](C)NC(=O)[C@H](CC(C)C)NC(=O)[C@H](CCCNC(=N)N)NC(=O)[C@H](CCC(=O)O)NC(=O)[C@@H](NC(=O)[C@H](C)NC(=O)[C@@H]1CCCCNC(=O)C[C@H](NC(=O)[C@H](CCCNC(=N)N)NC(=O)CC[C@H](NC(=O)CCCCCCCCCCCCCCCCCCC(=O)O)C(=O)O)C(=O)NCC(=O)N[C@@H]([C@@H](C)O)C(=O)N[C@@H](C)C(=O)N[C@@H]([C@@H](C)O)C(=O)N1)[C@@H](C)O | DLS | histidine buffer, mannitol, NaCl | pH 6.1, 25 °C | – | particle size | 1.8 to 3.9 nm |
| COC1CN([C@H]2CC[C@H]([C@@]3(C)Oc4c(Cl)cc(C(=O)NCc5c(SC)cc(C)[nH]c5=O)c(C)c4O3)CC2)C1 | – | female CB17 SCID mice, KARPAS-422 xenograft, plasma | 25 mg/kg, day 1 | – | Tmax | 1 h |
| CCc1cnc(NC(=O)c2cc(S(=O)(=O)N3CCOCC3)ccc2N(C)C2CCCC2)s1 | – | mouse | 10 mg/kg, 3 doses | – | haemoglobin | 14.4 g/dL |
| CCCCCCCCCCCCCCCC(=O)N[C@@H](CCC(=O)NCCCC[C@H](NC(=O)[C@H](C)NC(=O)[C@H](C)NC(=O)[C@H](CCC(N)=O)NC(=O)CNC(=O)[C@H](CCC(=O)O)NC(=O)[C@H](CC(C)C)NC(=O)[C@H](Cc1ccc(O)cc1)NC(=O)[C@H](CO)NC(=O)[C@H](CO)NC(=O)[C@@H](NC(=O)[C@H](CC(=O)O)NC(=O)[C@H](CO)NC(=O)[C@@H](NC(=O)[C@H](Cc1ccccc1)NC(=O)[C@@H](NC(=O)CNC(=O)[C@H](CCC(=O)O)NC(=O)[C@H](C)NC(=O)[C@@H](N)Cc1cnc[nH]1)[C@@H](C)O)[C@@H](C)O)C(C)C)C(=O)N[C@@H](CCC(=O)O)C(=O)N[C@@H](Cc1ccccc1)C(=O)N[C@H](C(=O)N[C@@H](C)C(=O)N[C@@H](Cc1c[nH]c2ccccc12)C(=O)N[C@@H](CC(C)C)C(=O)N[C@H](C(=O)N[C@@H](CCCNC(=N)N)C(=O)NCC(=O)N[C@@H](CCCNC(=N)N)C(=O)NCC(=O)O)C(C)C)[C@@H](C)CC)C(=O)O | – | mouse DIO | dose not given, day 32 chronic | – | ALT | 37.8 ± 3.7 U/L |
| Cc1cccc(-c2ccc3nc(NC(=O)C4CCCCC4)nn3c2)c1 | – | human liver microsomes | 40 min | – | metabolic turnover | 100% |
| Cc1noc(C)c1Cn1cc(N2C(=O)CN(Cc3cccc(O[C@@H]4O[C@H](C(=O)O)[C@@H](O)[C@H](O)[C@H]4O)c3)C2=O)cn1 | – | Sprague-Dawley rat, male | oral, 10 mg/kg of parent drug, 8 h | – | plasma concentration | 32 ng/mL |
| N[C@@H](CC(=O)O)C(=O)OC(C(=O)O)c1ccc(Br)cc1[N+](=O)[O-] (mixture of isomers) | 1H NMR, dark | 50 mM sodium phosphate | concentration not given, pH 9.0, room temperature, 12.5% DMSO-d6 | – | hydrolysis half-life, A isomer | 17.2 ± 0.6 h |

Repeated from above:
| SMILES | test | system | conditions | how to read | quantity | result |
| --- | --- | --- | --- | --- | --- | --- |
| CN1CCC[C@]1(C)/C=C/S(=O)(=O)NC(=O)Nc1c2c(cc3c1CCC3O)CCC2 (some centres unmarked) | – | human, plasma | oral, 12.5 mg twice daily of parent drug, metabolite of dosed drug | reference: day 14 over day 1 | AUC(0-24) accumulation ratio | 1.5 |
| C/C(N)=N/C(=N\S(=O)(=O)c1ccc(C(F)(F)F)cc1)N1C[C@H](c2ccccc2)C(c2ccc(Cl)cc2)=N1 | – | Beagle dog, plasma | oral, 24 mg/kg | – | oral bioavailability | 25.7% |
